Measurements gathered from unrelated publications.
Parts stem from different laboratories: compare values within a part only. Substitutions count along the parent as printed.

Block 1
Target: RNA binding protein fox-1 homolog 2, RRM domain, GST-SBP tag (RBFOX2, Homo sapiens, UniProt O43251-10, residues 100-194)
Method: RNA Bind-n-Seq
Form: RNA
Matrix: in vitro
Tested at: 365 nM
Notes: natural RNA segment, single round, ends assumed
Reference: no-protein control
Reading: higher = stronger binding
Construct (chain): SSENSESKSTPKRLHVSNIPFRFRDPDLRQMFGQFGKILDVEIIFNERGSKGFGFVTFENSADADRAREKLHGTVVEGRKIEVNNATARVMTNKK
`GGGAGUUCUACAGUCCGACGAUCUGUGAUUGUGAUUCAUCAUCCCUUAAUUAAAUAUCAAAUUAUAUUUGUGUGAAAAUGUGACAAACACACUUAUCUGUCUCUUCUACAAUUGUGGUUUAUUGAAUGUGAUUUGGAAUUCUCGGGUGCCAA` — result for “RBNS enrichment (R)”: 0.692.
For `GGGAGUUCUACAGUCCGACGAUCUCGUGAUUGCUUCCUGUGAACGCCUCCCAAGGACGAGCCCAGUGUAGUUGUGUGGCGUGAACUCUGCCCGUGUGUUCUCAAAUUCCCCAGCUUGGGAAAUAGCCCUUGGUUGGAAUUCUCGGGUGCCAA`, “RBNS enrichment (R)” read 0.459.
For `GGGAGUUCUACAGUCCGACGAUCUCGUUCUCUCCCCAUGGGGCACUGACAGAGAAAUGAAAUAGUUUUAUCUGGAAAAUUCCAGAGCUAUUAUUUACUCCUUACCAAGGGAAGUUACUUCUUGUAAAAACUUUUGGAAUUCUCGGGUGCCAA`, “RBNS enrichment (R)” read 0.397.
`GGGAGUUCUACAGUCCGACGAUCCAUGGAAAUGAUGGCACUGGAGGUGGAGGACCUUGCACGCAUACUCUUUGUGACCACAGGGUUGCAGGACGUUCUUGAAAGAUGUGUCACUAAAUGUUUGUUUUUGCUCAUGGAAUUCUCGGGUGCCAA`: “RBNS enrichment (R)” 3.76.
For `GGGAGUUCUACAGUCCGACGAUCGGAGGACUCCGGUCUUAACUCCCACGCUAACUUUAGCUCAAGUGGAGUUUUCACCGUGGUCAUUUCUACCUCCGGAGCAAGGUGCCAGCGCCAGUACUAGAGCCUGCUUAUGGAAUUCUCGGGUGCCAA`, “RBNS enrichment (R)” read 0.26.
`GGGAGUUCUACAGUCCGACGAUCGUGGUCCAGGGGCCGCGGAGUGGUUUGGGGGGGAAAAGAGAUUUUUUUCUUCUCUUAAUGGGAAUCGUGAUGGUGUUGAGUUAUUUCACUGGUGGGGUUAAUAUAGCAUGUGGAAUUCUCGGGUGCCAA` — result for “RBNS enrichment (R)”: 1.29.
`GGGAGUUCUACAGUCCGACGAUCACGACCUGCCGCGCCGAGGAGCGGCAUCUGUCCCGUUUCCCGAUUGGGUCUGUCGUCUCUCUCCGCCUAGCGACAGAUUCCUUCUAUUAAGGGAUUGGCUCGCUGAGUUCUGGAAUUCUCGGGUGCCAA`: “RBNS enrichment (R)” 0.237.
`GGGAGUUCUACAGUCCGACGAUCAGGGCAGCACUGGGAAGCUGGAGUGCUGCUUGUGCCUCCCUUCCCAGUGGGCUGUGUUGACUGCUGCUCCCCACCCCUACCGAUGGUCCCAGGAAGCAGGGAGAGUUGGGUGGAAUUCUCGGGUGCCAA` — result for “RBNS enrichment (R)”: 0.903.

Block 2
Target: CCNA1, cyclin fold, Cln2 fusion (human)
Method: yeast growth competition, sequencing
Matrix: yeast
Notes: weak parent motif
Reference: not given
Reading: higher = stronger binding
Starting sequence: CDC6 docking peptide (human); TLKGRRLVFDNQL; partner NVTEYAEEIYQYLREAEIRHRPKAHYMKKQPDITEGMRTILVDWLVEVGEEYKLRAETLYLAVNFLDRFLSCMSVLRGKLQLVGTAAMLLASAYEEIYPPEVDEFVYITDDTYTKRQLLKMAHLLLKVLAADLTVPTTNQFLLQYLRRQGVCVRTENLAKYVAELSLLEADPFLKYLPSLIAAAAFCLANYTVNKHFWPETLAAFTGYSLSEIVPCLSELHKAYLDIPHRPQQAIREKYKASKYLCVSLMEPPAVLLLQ
For `TLKGRKLVFDNQL [R6K]`, “normalised enrichment score” read 0.241.
`TLHGRRLVFDNQL [K3H]`: “normalised enrichment score” 0.0369.
For `TLKGRRLWFDNQL [V8W]`, “normalised enrichment score” read 0.471.
`TLKGRRLVFYNQL [D10Y]`: “normalised enrichment score” 0.532.
`TLKGRRLVFDNQD [L13D]`: “normalised enrichment score” 0.0914.
For `TLKGRRLVADNQL [F9A]`, “normalised enrichment score” read 0.287.
`TLKGRRLVFDCQL [N11C]`: “normalised enrichment score” 0.385.
For `TLKCRRLVFDNQL [G4C]`, “normalised enrichment score” read 0.553.
Under “normalised enrichment score”, `FLKGRRLVFDNQL [T1F]` is recorded as -0.225.
Under “normalised enrichment score”, `TLKGRALVFDNQL [R6A]` is recorded as 0.0875.
Under “normalised enrichment score”, `TLKGRRLVFANQL [D10A]` is recorded as -0.184.
`TLKGRCLVFDNQL [R6C]` — result for “normalised enrichment score”: 0.285.
`TLKGRRLVFDNQV [L13V]` — result for “normalised enrichment score”: 0.0965.
`TLKGRRLVFDNQE [L13E]` — result for “normalised enrichment score”: 0.241.
`TLKGRRLVFDQQL [N11Q]` — result for “normalised enrichment score”: 0.0107.
Under “normalised enrichment score”, `TLKGKRLVLDNQL [R5K F9L]` is recorded as 0.0863.

Block 3
Target: RING finger protein unkempt homolog, zinc fingers 1-6, GST-SBP tag (UNK, Homo sapiens, UniProt Q9C0B0, residues 30-357)
Chain of UniProt Q9C0B0 (30-357, looked up): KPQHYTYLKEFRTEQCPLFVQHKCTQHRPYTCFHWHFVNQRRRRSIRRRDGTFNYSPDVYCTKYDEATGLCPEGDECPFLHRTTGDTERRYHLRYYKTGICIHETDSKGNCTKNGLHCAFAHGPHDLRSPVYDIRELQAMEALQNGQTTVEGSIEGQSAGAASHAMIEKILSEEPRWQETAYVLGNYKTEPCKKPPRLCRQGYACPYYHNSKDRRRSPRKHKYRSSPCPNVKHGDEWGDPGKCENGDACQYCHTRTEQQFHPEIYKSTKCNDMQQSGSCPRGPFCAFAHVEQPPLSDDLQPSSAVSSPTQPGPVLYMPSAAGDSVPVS
Method: RNA Bind-n-Seq
Form: RNA
Matrix: in vitro
Tested at: not given
Notes: RNA with constant flanks, ends assumed
Reference: input RNA pool
Reading: higher = stronger binding
The bound/input enrichment of `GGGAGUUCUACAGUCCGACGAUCUAUAGCUACGCCCUUGGUCAGGGGUGGGGUGGGGCUGGUUGAGGGUGGGGGUGGGAUGGGACCCGAGGGCAACAUUGAAGGGGUUAAACAGGUUCCUGAAUUUGUUUGCCUGGGCCCAAUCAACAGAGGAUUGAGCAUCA` is reported as 1.32 ratio.
With `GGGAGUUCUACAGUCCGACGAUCCUUCAGCUGUCUACACCACAGAAAGCAAGUCAACACCAAGUUUUAUUUUUGUUAUCAGAUGCCGCACAUGCUAAGAAUCCCACCCAUUCCAAUAAAAAACUACCUACCUCUGCUUCAGUUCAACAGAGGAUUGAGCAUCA` the bound/input enrichment was 0.383 ratio.
`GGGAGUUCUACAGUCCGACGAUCUAUGUUUACGGAGUCCUGUUUAGUUUGGCAGAAAGCAGAAAGAAAACUGAGAGACUUGCUUUCCGAAAGAACAGACUUCCACCAGAAUUCUCGCCACUGAUCAUUAAGGAGUGGGCAGCUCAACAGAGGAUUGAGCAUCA` gave a bound/input enrichment of 0.216 ratio.
`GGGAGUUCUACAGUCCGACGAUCUAAACUGGUGCUUUAUGUACAUGAGAUGUACUAAAAUAAGUAAUAUAGAAUUUUUCUUGCCCGGUAAAUCCAGUAAGCCAAUAAUUUUAAAGAUUCUUUAUCUGCAUCAUUGCUGUUUGUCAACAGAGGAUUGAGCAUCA` gave a bound/input enrichment of 0.257 ratio.
The bound/input enrichment of `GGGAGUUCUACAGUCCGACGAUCAUUUCCAGUUGUCUGAGGUGGCCAGGACAUUACUCCCGUGCGCCUUACCCAUACUUCAGCCGCAGGCAUUUCUCAUUGAACUGUAGACCACCUUUUCUGUUUGAGUCUGGAACGCAGUUUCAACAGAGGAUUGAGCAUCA` is reported as 0.321 ratio.
`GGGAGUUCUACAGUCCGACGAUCUUGGCCAGUCAGUAUUCAGUUAAUGAAAUGUAUGCCGAAGCACUUAACACUUAUCAAGUUACCGUCAAAAAUAAGAUGUUUAGCAAUGCAGGAAUAUUGAAAAUGAAUAUGGGAAAUAUCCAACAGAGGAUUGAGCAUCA` has a bound/input enrichment of 0.292 ratio.
`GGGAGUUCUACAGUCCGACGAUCCCUCCUUUAUUAAUUUUCUUCCAAAGACAAGGGAAGGCCGGCGGACGACCUGUGGGCCCUUCCGUUACCAAGUCGCAGUGGUACGCGGAGGACCGAGACUAGGAACGGACCUUGACCUUUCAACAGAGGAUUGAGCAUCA` has a bound/input enrichment of 0.202 ratio.
The bound/input enrichment of `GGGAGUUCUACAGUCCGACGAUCGUAGGUCAGGACCCUGUCAUGAGACAGGUGGAAGGAAAAAACCCAGUCACAAUAUUUUCUCCCGCAACAAAUGAGAUGUGGCGAUCAGGGGAUAGUGAAGUAUACCAAAUGGGUGACGUUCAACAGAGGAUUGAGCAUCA` is reported as 0.917 ratio.

Further values, each from its own experiment
For `PhoQ, residues 284 288 289 292 302 303 SSCCRF`, the fold induction was 14.2 (PhoP, residues 12 14 15 18 19 NFCKL (Escherichia coli, UniProt P23836); Sort-seq, measured: YFP reporter; E. coli; PhoQ-PhoP variant library, together with: 10 µM Mg2+; reference: high Mg2+ state, higher = stronger signaling).

Excerpt of the above (block 1):
For `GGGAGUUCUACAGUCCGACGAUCUCGUGAUUGCUUCCUGUGAACGCCUCCCAAGGACGAGCCCAGUGUAGUUGUGUGGCGUGAACUCUGCCCGUGUGUUCUCAAAUUCCCCAGCUUGGGAAAUAGCCCUUGGUUGGAAUUCUCGGGUGCCAA`, “RBNS enrichment (R)” read 0.459.
For `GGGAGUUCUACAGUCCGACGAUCUCGUUCUCUCCCCAUGGGGCACUGACAGAGAAAUGAAAUAGUUUUAUCUGGAAAAUUCCAGAGCUAUUAUUUACUCCUUACCAAGGGAAGUUACUUCUUGUAAAAACUUUUGGAAUUCUCGGGUGCCAA`, “RBNS enrichment (R)” read 0.397.
